Results pooled from the literature.
Lines come from different studies, so protocols differ. ± marks the error that the study gave.

`CC(C)C[C@H](NC(=O)[C@H](Cc1ccc(O)cc1)NC(=O)CNC(=O)[C@H](CC(C)C)NC(=O)[C@@H]1CCCN1C(=O)CCCc1cn(CC(=O)NC(COCc2cn(CCO[C@H]3O[C@H](CO)[C@@H](O)[C@H](O)[C@@H]3O)nn2)(COCc2cn(CCO[C@H]3O[C@H](CO)[C@@H](O)[C@H](O)[C@@H]3O)nn2)COCc2cn(CCO[C@H]3O[C@H](CO)[C@@H](O)[C@H](O)[C@@H]3O)nn2)nn1)C(=O)NCC(=O)NCCCC[C@H](NC(=O)[C@H](CCCCN)NC(=O)[C@H](CC(=O)O)NC(=O)[C@@H]1CCCN1C(=O)[C@H](CCCNC(=N)N)NC(=O)[C@H](Cc1c[nH]cn1)NC(=O)[C@H](Cc1c[nH]c2ccccc12)NC(=O)[C@H](CO)NC(=O)[C@H](C)NC(=O)CNC(=O)[C@@H](N)CC(C)C)C(=O)N[C@@H](CC(C)C)C(=O)N[C@H](C(=O)N[C@@H](Cc1ccccc1)C(=O)N[C@@H](Cc1ccccc1)C(=O)N[C@@H](C)C(=O)N[C@@H](CCC(=O)O)C(=O)N[C@@H](CS)C(=O)NCC(=O)O)C(C)C` has a tumour volume of 591 ± 197 mm³ (C57BL/6 mouse, MB49-Luc tumour; intravenous, 100 µL, five doses, 500 µM, 18 days).
Under “compound action potential area”, `CCCC(C(N)=O)C(C)CC` (centres unmarked) is recorded as “no effect” (rat sciatic nerve; 1 or 3 mM, added: stimulation 0.2 Hz; relative to: baseline).
For `CC[C@H](C)[C@H](NC(=O)[C@H](CCSC)NC(=O)[C@H](CO)NC(=O)[C@H](Cc1ccccc1)NC(=O)[C@H](CO)NC(=O)[C@H](CCCCN)NC(=O)[C@H](CC(=O)O)NC(=O)[C@H](CC(C)C)NC(=O)[C@@H](N)CCCCN)C(=O)N[C@@H](CCCCN)C(=O)N[C@@H](CCC(=O)O)C(=O)NCC(=O)N[C@@H](CC(=O)O)C(=O)N[C@@H](Cc1ccc(O)cc1)C(=O)N[C@@H](CC(N)=O)C(=O)N1CCC[C@H]1C(=O)N[C@@H](CC(C)C)C(=O)N[C@@H](Cc1ccccc1)C(=O)N[C@H](C(=O)N1CCC[C@H]1C(=O)N[C@H](C(=O)N[C@@H](C)C(=O)N[C@H](C(=O)N[C@@H](CCSC)C(=O)N[C@H](C(=O)N[C@H](C(=O)N[C@@H](C)C(=O)N[C@@H](Cc1ccccc1)C(=O)N[C@@H](CO)C(=O)NCC(=O)N[C@@H](CC(C)C)C(=O)N[C@@H](C)C(=O)N[C@@H](Cc1ccccc1)C(=O)N[C@H](C(=O)N[C@H](C(=O)N[C@@H](Cc1c[nH]c2ccccc12)C(=O)N[C@@H](CC(C)C)C(=O)N[C@@H](C)C(=O)N[C@@H](CCCNC(=N)N)C(=O)N[C@@H](CCCNC(=N)N)C(=O)N[C@@H](CC(C)C)C(=O)N[C@@H](CCCCN)C(=O)N[C@@H](CCCCN)C(=O)NCC(=O)N[C@@H](CCCCN)C(=O)N[C@@H](CCCCN)C(=O)N[C@@H](CO)C(=O)N[C@@H](CCCCN)C(=O)N[C@@H](CCCNC(=N)N)C(=O)N[C@@H](CSC1CC(=O)N(c2ccc(-c3c4ccc(N(C)C)cc4[o+]c4cc(N(C)C)ccc34)c(C(=O)[O-])c2)C1=O)C(=O)N[C@@H](CCSC)C(=O)N[C@@H](CC(N)=O)C(=O)N[C@@H](CC(=O)O)C(=O)N1CCC[C@H]1C(=O)N[C@@H](Cc1ccc(O)cc1)C(=O)O)[C@@H](C)CC)[C@@H](C)CC)[C@@H](C)O)C(C)C)C(C)C)C(C)C)[C@@H](C)CC` (some centres unmarked), “TMR fluorescence difference” read “decreased” (iodide collisional quenching; 15% POPS versus POPC liposomes; concentration not given, pH 7.4, added: NaI 150 mM, NaNO3 up to 800 mM).
`Cc1[nH]c(/C=C2\C(=O)Nc3ccc(F)cc32)c(C)c1C(=O)NCCN1CCCC1` gave an overall survival of 89 days (dogs with lung metastatic osteosarcoma; dose not given, single agent).
For `CCN[C@@H]1C[C@H](N)[C@@H](O[C@H]2OC(CN)=CC[C@H]2N)[C@H](O)[C@H]1O[C@H]1OC[C@](C)(O)[C@H](NC)[C@H]1O`, the IC50 was over 500 µM ([14C]-phenylalanine incorporation, inhibitor, (UUU)12-directed cell-free translation; M. smegmatis 70S ribosomes, human cytosolic hybrid decoding site; 60 min, 37 °C).
For `Cc1ncc(COCc2cn(Cc3cc(F)cc(F)c3)nn2)c(CO)c1O`, the absorbance change was 0% (Zn2+ chelation; 100 µM, 30 min, 37 °C, added: Zn2+ 100 µM).
For `CC(=O)N[C@@H](CC(C)C)C(=O)N1CCC[C@H]1C(=O)N[C@@H](Cc1ccc(O)cc1)C(=O)N1CCC[C@H]1C(=O)N[C@@H](CCCCN)C(N)=O`, the transition enthalpy was 0.3 kcal/mol (DSC; SOPC/cholesterol 6/4 bilayers; 10 mol%, pH 7.40).
Under “mean arterial pressure”, `CC1=C(C(=O)Nc2ccc(C)cc2)C(c2ccccc2C#N)NC(=S)N1` (centres unmarked) is recorded as 22.8 ± 0.95 mm Hg (carotid artery cannulation; male Wistar rats, anaesthetised; 0.3 mL, 3 h).
The ED50 of `C[C@@H]1N(C)C(C)(C)CO[C@@]1(O)c1cccc(Cl)c1` is reported as 0.016 mg/kg (nicotine antinociception blockade, antagonist, tail-flick test; mouse; 15 min pretreatment, added: nicotine 2.5 mg/kg subcutaneous).
`CC(C)OC(=O)[C@H](CCC(=O)C=[N+]=[N-])NC(=O)OC(OC(=O)C(C)(C)C)c1ccccc1` (some centres unmarked): “Ki67 or cleaved caspase-3” “no effect” (mouse flank MPNST model, tumour; dose not given, 14 days; relative to: vehicle).
With `Cc1cccc(Cn2cc(COCc3cnc(C)c(O)c3CO)nn2)c1` the absorbance change was 0% (Cu2+ chelation; 100 µM, 30 min, 37 °C, added: Cu2+ 100 µM).
Under “menadione reductase activity”, `Cc1ccc2cc3c(ccc4ccccc43)c3c2c1CC3` is recorded as 83.3 enzyme units (inducer; female rat, liver; oral, 10 mg, 24 h, sesame oil vehicle).
The glucose AUC of `NNc1ncc(S(=O)(=O)NC(=S)Nc2ccccc2)c(=O)[nH]1` is reported as 601 ± 71.5 mg·min/dL (oral glucose tolerance test; HFD/STZ type 2 diabetic rat; oral, 10 mg/kg, added: glucose 1 g/kg).
`CNCCC(Oc1ccc(C(F)(F)F)cc1)c1ccccc1` (centres unmarked): immobility time “decreased” (tail suspension test; VMAT2 heterozygous mice; intraperitoneal, 20 mg/kg, 30 min; relative to: vehicle).
`CC1=C(C(=O)Nc2ccccc2)C(c2ccccc2C#N)NC(=S)N1` (centres unmarked) — result for “mean arterial pressure”: 20.7 ± 0.68 mm Hg (carotid artery cannulation; male Wistar rats, anaesthetised; 0.3 mL, 3 h).
For `CC[C@H](C)[C@H](NC(=O)[C@@H](CCCNC(=N)N)NC(=O)[C@H](CCCNC(=N)N)NC(=O)[C@@H]1CCCN1C(=O)[C@@H]1CCCN1C(=O)[C@H](CCCNC(=N)N)NC(=O)[C@@H]1CCCN1C(=O)[C@H](CCCNC(=N)N)NC(=O)[C@@H]1CCCN1C(=O)[C@H](CC(C)C)NC(=O)[C@H](Cc1ccc(O)cc1)NC(=O)[C@@H]1CCCN1C(=O)[C@@H]1CCCN1C(=O)[C@H](CCCCN)NC(=O)[C@H](CC(=O)O)NC(=O)[C@@H](N)C(C)C)C(=O)N[C@@H](Cc1ccc(O)cc1)C(=O)N[C@@H](CC(N)=O)C(=O)N[C@H](CCCNC(=N)N)C(N)=O`, the Kd was 0.075 ± 0.004 µM (binding, fluorescence polarization; 70S ribosome, Escherichia coli BW25113; 90 min, pH 7.6, 28 °C, added: fluorescein-labelled peptide).
`C[C@]12N3Cc4c(c(OCCCS(=O)(=O)[O-])c5ccccc5c4OCCCS(=O)(=O)[O-])CN1C(=O)N1CN4C(=O)N5CN6C(=O)N7CN8C(=O)N9Cc%10c(c(OCCCS(=O)(=O)[O-])c%11ccccc%11c%10OCCCS(=O)(=O)[O-])CN%10C(=O)N(CN%11C(=O)N(CN%12C(=O)N(CN(C3=O)[C@]12C)[C@@H]4[C@H]%125)[C@@H]6[C@H]%117)[C@]8(C)[C@@]9%10C.[Na+].[Na+].[Na+].[Na+]` — result for “time to recovery of righting reflex”: 6 ± 0.7 min (Sprague-Dawley rat; intravenous, 80 mg/kg/min from 3 min, added: ketamine 30 mg/kg i.v.).
With `CC[C@H](C)[C@H](NC(=O)CNC(=O)[C@H](Cc1c[nH]c2ccccc12)NC(=O)CNC(C)=O)C(=O)N[C@@H](CCCCN)C(N)=O` the transition enthalpy was 0.9 kcal/mol (DSC; SOPC/cholesterol 7/3 bilayers; 5 mol%, pH 7.40).
`atrial natriuretic peptide` gave an ejection fraction of about 82% (echocardiography; male Wistar rat, high-fat/STZ type 2 diabetes; subcutaneous osmotic pump, 2 pmol/kg/min, 6 weeks).
`CC[C@H](C)[C@H](NC(=O)[C@@H](N)Cc1ccccc1)C(=O)N1CCC[C@H]1C(=O)N[C@@H](CCC(N)=O)C(=O)N[C@@H](Cc1ccc(O)cc1)C(=O)N[C@@H](CC(C)C)C(=O)N[C@@H](CO)C(=O)N[C@@H](C)C(=O)N[C@H](C(=O)O)C(C)C` — result for “IFN-γ+ CD8+ T cells”: at most 3.7% (PBMC, human, HSV-1 seropositive, HLA-A*0201+; 10 µg/mL, 72 h).
`CS(=O)(=O)c1ccc(C2=C(c3ccccc3)C(=O)OC2)cc1` — result for antiallodynic effect: “inactive” (paw withdrawal latency; mouse, capsaicin-induced mechanical allodynia; subcutaneous, dose not given, added: punctate stimulus 0.5 g force).
With `NC[C@H]1O[C@H](O[C@H]2[C@H](O)[C@@H](O[C@H]3O[C@H](CO)[C@@H](O)[C@H](N)[C@H]3O)[C@H](N)C[C@@H]2N)[C@H](N)C[C@@H]1O` the IC50 was 60 µM (luciferase synthesis, inhibitor, coupled transcription-translation; M. smegmatis 70S ribosomes, Leishmania/Trypanosoma hybrid; 60 min, 37 °C).
For `C[C@@H]1NC(C)(C)CO[C@@]1(O)c1ccc(F)c(F)c1`, the ED50 was about 0.006 mg/kg (nicotine antinociception blockade, antagonist, tail-flick test; mouse; 15 min pretreatment, added: nicotine 2.5 mg/kg subcutaneous).
Under “menadione reductase activity”, `c1ccc2c(c1)cc1ccc3cccc4ccc2c1c34` is recorded as 14.3 enzyme units (inducer; female rat, liver; oral, 1 mg, 24 h, sesame oil vehicle).
For `Cc1ccc(NC(=S)NS(=O)(=O)C2=CNC3SC(=O)CN3C2=O)cc1` (centres unmarked), the glucose AUC was 496 ± 40.9 mg·min/dL (oral glucose tolerance test; HFD/STZ type 2 diabetic rat; oral, 10 mg/kg, added: glucose 1 g/kg).
`CC1=C(C(=O)Nc2ccccc2)C(c2ccccc2Cl)NC(=S)N1` (centres unmarked) — result for “mean arterial pressure”: 20.9 ± 0.64 mm Hg (carotid artery cannulation; male Wistar rats, anaesthetised; 0.3 mL, 3 h).
For `Cc1nn(-c2ccccc2)c(NC(=O)NS(=O)(=O)c2ccc(Cl)cc2)c1C#N`, mechanical allodynia read “no effect” (antagonist, von Frey; mouse; intrathecal, dose not given, added: capsaicin).
`CC(=O)N[C@@H](CC(C)C)C(=O)NCC(=O)N[C@@H](Cc1ccc(O)cc1)C(=O)NCC(=O)N[C@@H](CCCCN)C(N)=O` has a transition enthalpy of 0.3 kcal/mol (DSC; SOPC/cholesterol 6/4 bilayers; 10 mol%, pH 7.40).
For `O=C(NCc1ccc(-c2ccccc2)cc1)c1cccc(=O)n1O`, “troponin I release” read 58.2 ± 5.2 ng/mL (item: troponin I in coronary effluent; rat, isolated perfused stunned heart; dose not given, 20-25 min ischaemia, 5 min reperfusion).
For `CC1=C(C(=O)Cl)C(c2ccccc2C#N)NC(=S)N1` (centres unmarked), “mean arterial pressure” read 27 ± 1.44 mm Hg (carotid artery cannulation; male Wistar rats, anaesthetised; 0.3 mL, 3 h).
For `CC(C)C(=O)OC[C@H]1O[C@@](C#N)(c2ccc3c(N)ncnn23)[C@H](O)[C@@H]1O`, “viral RNA level” read “decreased” (qRT-PCR; BALB/c mice, MHV-A59 infected, liver; intragastric, 10 and 50 mg/kg twice daily, 3 days post infection; relative to: vehicle).
`C=C[C@H]1[C@H]2CCC[C@]1(c1cccc(C(N)=O)c1)CCN2CCc1ccccc1`: “time of significant antinociception” 30 min (pain-depressed locomotion; mice; subcutaneous, 18 mg/kg, added: intraperitoneal lactic acid; relative to: vehicle).
`QPRWSYYDSFSAV` has an EC50 of under 0.0001 µM (IFN-γ release, ELISPOT; peptide, splenocytes, BALB/c mouse immunised).
Under “in vivo affinity ratio”, `COc1ccc(OC)c(CN(C(=O)C[18F])c2ccccc2Oc2ccccc2)c1` is recorded as 1.37 (human, brain; relative to: cpd over 11C-PBR28).
For `O=c1c(I)ccc2n1C[C@@H]1CNC[C@H]2C1`, hypothermia read “no effect” (α7 null mutant mice; intraperitoneal, 0.2 mg/kg, rectal temperature; relative to: wild-type mice).

Excerpt of the above:
Under “mean arterial pressure”, `CC1=C(C(=O)Nc2ccc(C)cc2)C(c2ccccc2C#N)NC(=S)N1` (centres unmarked) is recorded as 22.8 ± 0.95 mm Hg (carotid artery cannulation; male Wistar rats, anaesthetised; 0.3 mL, 3 h).
For `CC[C@H](C)[C@H](NC(=O)[C@@H](CCCNC(=N)N)NC(=O)[C@H](CCCNC(=N)N)NC(=O)[C@@H]1CCCN1C(=O)[C@@H]1CCCN1C(=O)[C@H](CCCNC(=N)N)NC(=O)[C@@H]1CCCN1C(=O)[C@H](CCCNC(=N)N)NC(=O)[C@@H]1CCCN1C(=O)[C@H](CC(C)C)NC(=O)[C@H](Cc1ccc(O)cc1)NC(=O)[C@@H]1CCCN1C(=O)[C@@H]1CCCN1C(=O)[C@H](CCCCN)NC(=O)[C@H](CC(=O)O)NC(=O)[C@@H](N)C(C)C)C(=O)N[C@@H](Cc1ccc(O)cc1)C(=O)N[C@@H](CC(N)=O)C(=O)N[C@H](CCCNC(=N)N)C(N)=O`, the Kd was 0.075 ± 0.004 µM (binding, fluorescence polarization; 70S ribosome, Escherichia coli BW25113; 90 min, pH 7.6, 28 °C, added: fluorescein-labelled peptide).
For `O=C(NCc1ccc(-c2ccccc2)cc1)c1cccc(=O)n1O`, “troponin I release” read 58.2 ± 5.2 ng/mL (item: troponin I in coronary effluent; rat, isolated perfused stunned heart; dose not given, 20-25 min ischaemia, 5 min reperfusion).
